Measured values from different studies.
Numbered parts are unrelated; each lists some results of a single study. Several values in a cell are separate wells, animals, samples, runs or records.
UniProt Q9NYL2, sequence (whole entry, looked up): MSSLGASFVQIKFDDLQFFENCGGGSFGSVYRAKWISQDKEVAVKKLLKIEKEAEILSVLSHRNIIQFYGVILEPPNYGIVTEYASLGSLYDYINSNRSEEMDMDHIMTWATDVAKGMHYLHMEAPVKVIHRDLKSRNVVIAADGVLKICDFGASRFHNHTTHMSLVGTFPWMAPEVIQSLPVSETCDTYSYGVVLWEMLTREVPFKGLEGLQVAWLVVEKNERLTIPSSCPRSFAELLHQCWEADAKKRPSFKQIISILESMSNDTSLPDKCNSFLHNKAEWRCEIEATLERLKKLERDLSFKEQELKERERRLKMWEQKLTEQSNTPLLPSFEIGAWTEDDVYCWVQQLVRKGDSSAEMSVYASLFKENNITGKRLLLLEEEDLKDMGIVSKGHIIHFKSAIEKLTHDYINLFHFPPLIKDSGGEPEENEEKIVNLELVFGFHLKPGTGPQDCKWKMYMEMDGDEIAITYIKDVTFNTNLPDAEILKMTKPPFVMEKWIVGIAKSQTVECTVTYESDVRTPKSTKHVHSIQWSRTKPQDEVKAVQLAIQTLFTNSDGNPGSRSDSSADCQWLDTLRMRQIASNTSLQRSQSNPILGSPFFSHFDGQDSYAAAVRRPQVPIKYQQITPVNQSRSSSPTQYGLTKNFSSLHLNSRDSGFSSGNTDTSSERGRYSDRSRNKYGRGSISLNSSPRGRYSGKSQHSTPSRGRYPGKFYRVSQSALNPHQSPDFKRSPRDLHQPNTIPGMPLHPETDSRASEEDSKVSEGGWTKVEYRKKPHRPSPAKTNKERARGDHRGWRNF
UniProt P51812, sequence (whole entry, looked up): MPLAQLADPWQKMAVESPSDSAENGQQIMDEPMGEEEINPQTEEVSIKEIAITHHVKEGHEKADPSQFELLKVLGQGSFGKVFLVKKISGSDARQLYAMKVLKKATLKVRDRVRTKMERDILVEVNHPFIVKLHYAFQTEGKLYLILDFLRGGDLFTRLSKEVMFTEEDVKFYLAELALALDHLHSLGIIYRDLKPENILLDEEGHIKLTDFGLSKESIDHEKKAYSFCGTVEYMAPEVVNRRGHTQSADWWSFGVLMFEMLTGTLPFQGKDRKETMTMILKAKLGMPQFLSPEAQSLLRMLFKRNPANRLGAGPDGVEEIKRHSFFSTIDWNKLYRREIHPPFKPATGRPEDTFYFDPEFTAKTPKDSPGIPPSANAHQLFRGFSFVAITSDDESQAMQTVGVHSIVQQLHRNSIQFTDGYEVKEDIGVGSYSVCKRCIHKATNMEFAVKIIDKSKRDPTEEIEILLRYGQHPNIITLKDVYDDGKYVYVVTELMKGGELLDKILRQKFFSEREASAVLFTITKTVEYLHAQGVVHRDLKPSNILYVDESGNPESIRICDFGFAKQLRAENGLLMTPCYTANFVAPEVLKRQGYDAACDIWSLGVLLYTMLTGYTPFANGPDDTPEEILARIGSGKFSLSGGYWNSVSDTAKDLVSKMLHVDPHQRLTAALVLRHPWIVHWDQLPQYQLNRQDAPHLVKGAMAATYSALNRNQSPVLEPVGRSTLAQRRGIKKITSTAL
UniProt P49674, sequence (whole entry, looked up): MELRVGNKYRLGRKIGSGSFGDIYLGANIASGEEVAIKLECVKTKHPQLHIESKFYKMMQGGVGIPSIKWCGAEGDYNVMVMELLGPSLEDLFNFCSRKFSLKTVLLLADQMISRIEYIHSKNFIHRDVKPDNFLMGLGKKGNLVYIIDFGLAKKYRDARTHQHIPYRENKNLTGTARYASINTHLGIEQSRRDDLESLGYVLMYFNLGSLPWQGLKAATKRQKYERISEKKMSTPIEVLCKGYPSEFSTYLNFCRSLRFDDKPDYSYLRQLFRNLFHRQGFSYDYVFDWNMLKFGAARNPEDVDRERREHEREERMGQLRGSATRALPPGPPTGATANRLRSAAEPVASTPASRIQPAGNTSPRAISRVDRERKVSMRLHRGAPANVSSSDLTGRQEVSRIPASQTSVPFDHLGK
UniProt P42680, sequence (whole entry, looked up): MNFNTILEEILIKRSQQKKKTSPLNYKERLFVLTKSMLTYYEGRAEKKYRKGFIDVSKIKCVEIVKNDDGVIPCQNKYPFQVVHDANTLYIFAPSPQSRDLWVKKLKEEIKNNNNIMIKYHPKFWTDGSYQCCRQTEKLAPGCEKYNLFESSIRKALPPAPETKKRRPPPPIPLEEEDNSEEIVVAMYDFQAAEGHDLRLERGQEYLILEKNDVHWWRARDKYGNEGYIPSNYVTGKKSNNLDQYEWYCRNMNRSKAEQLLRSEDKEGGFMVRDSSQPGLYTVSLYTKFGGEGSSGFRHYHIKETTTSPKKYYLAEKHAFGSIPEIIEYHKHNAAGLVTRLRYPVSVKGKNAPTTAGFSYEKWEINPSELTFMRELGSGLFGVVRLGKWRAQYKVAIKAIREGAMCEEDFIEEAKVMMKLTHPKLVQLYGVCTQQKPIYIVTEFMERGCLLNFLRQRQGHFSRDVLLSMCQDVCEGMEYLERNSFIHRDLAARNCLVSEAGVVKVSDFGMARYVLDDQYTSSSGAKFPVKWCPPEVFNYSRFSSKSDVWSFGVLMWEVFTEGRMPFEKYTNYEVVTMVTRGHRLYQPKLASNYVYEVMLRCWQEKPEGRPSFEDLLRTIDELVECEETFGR
UniProt Q9HBY8, sequence (whole entry, looked up): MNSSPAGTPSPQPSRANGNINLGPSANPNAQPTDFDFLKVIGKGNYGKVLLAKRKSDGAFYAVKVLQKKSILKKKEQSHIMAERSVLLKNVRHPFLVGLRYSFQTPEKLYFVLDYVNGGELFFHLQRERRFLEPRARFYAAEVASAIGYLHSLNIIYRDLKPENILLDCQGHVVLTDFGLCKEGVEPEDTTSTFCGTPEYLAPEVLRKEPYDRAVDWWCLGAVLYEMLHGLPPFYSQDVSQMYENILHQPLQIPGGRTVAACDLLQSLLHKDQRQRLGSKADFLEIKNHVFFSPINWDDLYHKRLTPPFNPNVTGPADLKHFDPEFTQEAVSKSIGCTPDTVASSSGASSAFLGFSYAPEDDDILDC
UniProt P49760, sequence (whole entry, looked up): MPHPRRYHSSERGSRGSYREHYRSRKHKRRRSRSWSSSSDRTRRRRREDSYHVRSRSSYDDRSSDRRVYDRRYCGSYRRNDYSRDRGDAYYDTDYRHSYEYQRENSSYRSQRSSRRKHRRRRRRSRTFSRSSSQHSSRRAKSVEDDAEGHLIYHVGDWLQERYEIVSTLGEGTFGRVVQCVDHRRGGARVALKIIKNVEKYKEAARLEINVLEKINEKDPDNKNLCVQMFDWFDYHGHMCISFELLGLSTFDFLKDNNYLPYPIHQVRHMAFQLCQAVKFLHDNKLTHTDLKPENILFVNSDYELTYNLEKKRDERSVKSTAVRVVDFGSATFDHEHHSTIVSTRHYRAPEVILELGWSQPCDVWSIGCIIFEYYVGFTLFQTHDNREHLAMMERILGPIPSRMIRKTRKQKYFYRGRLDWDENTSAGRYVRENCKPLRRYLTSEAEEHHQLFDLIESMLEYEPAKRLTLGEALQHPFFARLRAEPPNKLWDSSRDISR
UniProt P49759, sequence (whole entry, looked up): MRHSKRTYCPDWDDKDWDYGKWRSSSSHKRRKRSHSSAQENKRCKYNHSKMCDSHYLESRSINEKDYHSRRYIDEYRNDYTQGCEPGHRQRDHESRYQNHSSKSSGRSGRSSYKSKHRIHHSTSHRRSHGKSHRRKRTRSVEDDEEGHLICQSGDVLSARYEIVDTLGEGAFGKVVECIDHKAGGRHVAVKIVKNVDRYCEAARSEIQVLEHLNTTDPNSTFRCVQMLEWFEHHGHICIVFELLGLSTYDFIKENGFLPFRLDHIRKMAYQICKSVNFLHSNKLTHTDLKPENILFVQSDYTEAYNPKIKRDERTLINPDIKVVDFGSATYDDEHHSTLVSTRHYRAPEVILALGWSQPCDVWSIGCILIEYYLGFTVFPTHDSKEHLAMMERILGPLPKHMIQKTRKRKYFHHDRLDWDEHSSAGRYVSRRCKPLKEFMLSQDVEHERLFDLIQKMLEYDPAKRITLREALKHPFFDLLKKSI
UniProt Q14012, sequence (whole entry, looked up): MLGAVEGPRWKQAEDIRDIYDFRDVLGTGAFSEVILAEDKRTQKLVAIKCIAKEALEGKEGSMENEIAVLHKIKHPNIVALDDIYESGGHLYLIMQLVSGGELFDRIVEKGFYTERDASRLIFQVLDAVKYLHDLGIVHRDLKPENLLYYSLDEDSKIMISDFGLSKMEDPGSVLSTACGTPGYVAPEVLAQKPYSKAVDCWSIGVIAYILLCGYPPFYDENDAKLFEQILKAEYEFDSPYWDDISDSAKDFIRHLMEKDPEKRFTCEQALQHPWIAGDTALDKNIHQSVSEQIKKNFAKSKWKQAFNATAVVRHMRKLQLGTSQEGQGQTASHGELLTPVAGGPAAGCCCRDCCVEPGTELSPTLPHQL

Study 1 — effect on: enzyme activity; action: inhibitor; concentration: 0.5 µM; relative to: control; endpoint: remaining activity
SMILES: O=Nc1c(-c2c(O)[nH]c3ccccc23)[nH]c2ccccc12
JAK1 (Homo sapiens, UniProt P23458): 63.4%
SGK2 (Homo sapiens, UniProt Q9HBY8): 91.8%
PRKCQ (Homo sapiens, UniProt Q04759): 99.1%
IGF1R (Homo sapiens, UniProt P08069): 80.2%
SIK2 (Homo sapiens, UniProt Q9H0K1): 89.8%
Cyclin-dependent kinase 2, with cyclin E (CDK2, Homo sapiens, UniProt P24941): 31.3%
CLK1 (Homo sapiens, UniProt P49759): 90.9%
CSNK1E (Homo sapiens, UniProt P49674): 46.1%
CSNK1D (Homo sapiens, UniProt P48730): 39.3%
SRPK1 (Homo sapiens, UniProt Q96SB4): 89.3%
CLK2 (Homo sapiens, UniProt P49760): 92.5%
TEC (Homo sapiens, UniProt P42680): 105%
EPHA2 (Homo sapiens, UniProt P29317): 84.3%
CAMKK1 (Homo sapiens, UniProt Q8N5S9): 53.6%
PAK6 (Homo sapiens, UniProt Q9NQU5): 94.4%
CAMK1 (Homo sapiens, UniProt Q14012): 83.7%
RPS6KA3 (Homo sapiens, UniProt P51812): 61.4%
FLT1 (Homo sapiens, UniProt P17948): 73.6%
PRKCZ (Homo sapiens, UniProt Q05513): 95.2%
MAP3K20 (Homo sapiens, UniProt Q9NYL2): 89.6%
TYRO3 (Homo sapiens, UniProt Q06418): 79.6%

Study 2 — effect on: enzyme activity; action: inhibitor; concentration: 10 µM; endpoint: inhibition
Target: Calcium/calmodulin-dependent protein kinase type II subunit alpha (CAMK2A, Homo sapiens, UniProt Q9UQM7)
UniProt Q9UQM7, sequence (whole entry, looked up): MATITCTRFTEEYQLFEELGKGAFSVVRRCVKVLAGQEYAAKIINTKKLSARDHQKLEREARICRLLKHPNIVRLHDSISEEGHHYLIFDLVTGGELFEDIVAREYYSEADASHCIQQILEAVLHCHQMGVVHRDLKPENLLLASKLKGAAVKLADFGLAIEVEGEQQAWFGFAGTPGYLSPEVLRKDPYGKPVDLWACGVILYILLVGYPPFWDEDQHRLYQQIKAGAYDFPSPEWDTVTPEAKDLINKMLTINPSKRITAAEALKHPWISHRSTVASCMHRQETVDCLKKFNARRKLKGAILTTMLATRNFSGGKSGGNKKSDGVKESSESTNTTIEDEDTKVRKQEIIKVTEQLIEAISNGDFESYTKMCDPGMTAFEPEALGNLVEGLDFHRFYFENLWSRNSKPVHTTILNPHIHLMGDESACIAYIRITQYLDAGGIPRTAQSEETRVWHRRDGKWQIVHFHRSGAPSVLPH
CC(C)(C)c1cc(C(C)(C)C)c(NC(=O)c2c[nH]c3ccccc3c2=O)cc1O: 0%
COc1ccc(C(=O)O)cc1: 29%
O=C1CCc2cc(OCCCCc3nnnn3C3CCCCC3)ccc2N1: 4%
COc1c2ccoc2c(O)c2oc(=O)ccc12: -2%
CC(=O)OCc1cocc2c(C=O)ccc1-2: -12%
COc1ccc(-c2cc(=O)c3c(O)cc(O)cc3o2)cc1: 8%
C[C@@](Cc1ccc(O)c(O)c1)(NN)C(=O)O: -2%

Study 3 — method: logD(dd/w) and ALogP; setting: JT method; endpoint: lipophilic permeability efficiency
CC(C)C[C@@H]1NC(=O)[C@H](C)NC(=O)[C@@H](CC(C)C)NC(=O)[C@@H](CC(C)C)NC(=O)[C@@H](CCC(=O)N2CCCC2)NC(=O)[C@H](CC(C)C)NC(=O)[C@@H](CC(C)C)NC1=O: 2.29
CC(C)C[C@@H]1NC(=O)[C@H](C(C)C)NC(=O)[C@@H](CC(C)C)NC(=O)[C@@H](CC(C)C)NC(=O)[C@H](C(C)C)NC(=O)[C@H](CC(C)C)NC(=O)[C@@H](CC(C)C)NC1=O: 3.3
CC(C)C[C@@H]1NC(=O)[C@H](C)NC(=O)[C@H](CCC(=O)N2CCCC2)NC(=O)[C@H](CC(C)C)NC(=O)[C@@H](CCC(=O)N2CCCC2)NC(=O)[C@H](CC(C)C)NC(=O)[C@@H](CC(C)C)NC1=O: 1.81
CC(C)C[C@@H]1NC(=O)[C@H](C(C)C)NC(=O)[C@H](CCC(=O)N2CCCC2)NC(=O)[C@H](CCC(=O)N2CCCC2)NC(=O)[C@@H](CCC(=O)N2CCCC2)NC(=O)[C@H](CC(C)C)NC(=O)[C@@H](CC(C)C)NC1=O: 1.94
CC(C)C[C@@H]1NC(=O)[C@H](CC(C)C)NC(=O)[C@@H](C(C)C)NC(=O)[C@H](CC(C)C)NC(=O)[C@H](C(C)C)NC(=O)[C@H](Cc2cscn2)NC(=O)[C@H](C)NC1=O: 2.43
CC(C)C[C@@H]1NC(=O)[C@H](CC(C)C)NC(=O)[C@@H](CC(C)C)NC(=O)[C@@H](C)NC(=O)[C@H](C)NC(=O)[C@H](Cc2cscn2)NC(=O)[C@H](CCC(=O)N2CCCC2)NC1=O: 1.88
CC(C)C[C@@H]1NC(=O)[C@H](CC(C)C)NC(=O)[C@@H](C(C)C)NC(=O)[C@H](C)NC(=O)[C@@H](Cc2cscn2)NC(=O)[C@@H](CC(C)C)NC(=O)[C@H](C)NC1=O: 2.16
CC(C)C[C@@H]1NC(=O)[C@H](C(C)C)NC(=O)[C@H](Cc2cscn2)NC(=O)[C@@H](CC(C)C)NC(=O)[C@@H](CCC(=O)N2CCCC2)NC(=O)[C@H](CC(C)C)NC(=O)[C@@H](CC(C)C)NC1=O: 2.11
CC(C)C[C@@H]1NC(=O)[C@H](CC(C)C)NC(=O)[C@@H](CC(C)C)NC(=O)[C@H](CC(C)C)NC(=O)[C@H](C(C)C)NC(=O)[C@H](C)NC(=O)[C@H](C)NC1=O: 2.82
CC(C)C[C@@H]1NC(=O)[C@H](C(C)C)NC(=O)[C@H](CC(C)C)NC(=O)[C@@H](CC(C)C)NC(=O)[C@H](CC(C)C)NC(=O)[C@@H](C)NC(=O)[C@@H](CC(C)C)NC1=O: 2.64
CC(C)C[C@@H]1NC(=O)[C@H](C)NC(=O)[C@H](C)NC(=O)[C@@H](CC(C)C)NC(=O)[C@H](C)NC(=O)[C@H](CC(C)C)NC(=O)[C@H](CC(C)C)NC1=O: 2.35

Study 4 — method: CellTiter-Glo; host: human; sample: normal-adjacent epithelium; concentration: 0.1 µM; relative to: DMSO; endpoint: viability
Structure (SMILES): CCCOc1ccc([C@@H]2[C@@H](C(=O)O)[C@H](c3ccc4c(c3)OCO4)CN2CC(=O)Nc2c(CC)cccc2CC)cc1
normal organoid sample F: 89.5% and 124%
normal organoid sample D: 86.9% and 98.8%
normal organoid sample E: 96.6% and 125%

Repeated from above (study 1):
JAK1 (Homo sapiens, UniProt P23458): 63.4%
SGK2 (Homo sapiens, UniProt Q9HBY8): 91.8%
PRKCQ (Homo sapiens, UniProt Q04759): 99.1%
